Measured values gathered from unrelated publications.
A part holds a random share of what one study measured.

Study 1
Target: Ras GTPase-activating protein-binding protein 1, full length (G3BP1, Homo sapiens, UniProt Q13283)
Sequence of UniProt Q13283 (whole entry, looked up): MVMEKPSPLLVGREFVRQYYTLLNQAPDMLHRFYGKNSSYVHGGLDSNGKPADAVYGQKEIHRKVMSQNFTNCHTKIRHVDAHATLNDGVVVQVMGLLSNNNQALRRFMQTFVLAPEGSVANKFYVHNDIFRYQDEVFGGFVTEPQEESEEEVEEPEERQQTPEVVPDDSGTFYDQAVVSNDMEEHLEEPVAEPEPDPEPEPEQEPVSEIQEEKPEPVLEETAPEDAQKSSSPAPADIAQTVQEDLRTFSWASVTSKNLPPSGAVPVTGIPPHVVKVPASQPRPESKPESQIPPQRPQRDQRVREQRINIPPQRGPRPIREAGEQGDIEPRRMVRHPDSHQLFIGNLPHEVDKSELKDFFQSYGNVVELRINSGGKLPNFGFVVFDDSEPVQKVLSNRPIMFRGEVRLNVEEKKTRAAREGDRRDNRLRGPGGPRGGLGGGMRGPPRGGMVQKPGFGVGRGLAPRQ
Method: RNA Bind-n-Seq
Form: RNA
Sample: in vitro
Concentration: 200 nM
Setting: whole 134-nt RNA, ends assumed
Together with: 150 mM LiCl
Relative to: input library
Reading: higher = stronger binding
Measurement: log2 enrichment
All molecules: 7-deaza-guanosine replaces G
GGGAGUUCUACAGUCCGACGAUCCCUCAAGUCCUGUGCUACACAUCGUAUGUACCGAAUCGGGGUUGGUUGGUUGGAAAGUAUUAUGUUACGCCGUUCGGAUCUGCACUUCCAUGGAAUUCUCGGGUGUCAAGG: -0.353
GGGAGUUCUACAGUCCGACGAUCUCAAGUCCUGUGCUACACAUCGUAUGUACCGAAUCGGGAAGGGGAAGGAAGGGGAAAGUAUUAUGUUACGCCGUUCGGAUCUGCACUUCCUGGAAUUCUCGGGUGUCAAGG: -0.28
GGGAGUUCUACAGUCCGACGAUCCCUGUGCUACACAUCGUAUGUACCGAAUCGGGUUUUUUUGGUUUUUUUGGUUUUUUUGGGGAAAGUAUUAUGUUACGCCGUUCGGAUCUGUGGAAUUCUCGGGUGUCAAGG: 0.192
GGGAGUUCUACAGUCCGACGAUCGGUAGCAAGAGCUCCAGAGAGAAGUCGAGGAAGAGAGAGACGGGGUCAGAGAGAGCGCGCGGGCGUGCGAGCAGCGAAAGCGACAGGGGCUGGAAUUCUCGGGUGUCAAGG: 0.773
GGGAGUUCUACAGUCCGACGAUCUCAAGUCCUGUGCUACACAUCGUAUGUACCGAAUCGGGGCCGGGCCGGCCGGGGAAAGUAUUAUGUUACGCCGUUCGGAUCUGCACUUCCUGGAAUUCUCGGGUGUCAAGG: 0.684
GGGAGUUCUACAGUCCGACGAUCGUCCUGUGCUACACAUCGUAUGUACCGAAUCAAAUUUAAAUUUUUUUAAACCCCCAAAAAAGUAUUAUGUUACGCCGUUCGGAUCUGCACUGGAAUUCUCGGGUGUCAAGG: -0.146
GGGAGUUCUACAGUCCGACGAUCUCAAGUCCUGUGCUACACAUCGUAUGUACCGAAUCGGGAGGGUGGGUUUUUGGGAAAGUAUUAUGUUACGCCGUUCGGAUCUGCACUUCCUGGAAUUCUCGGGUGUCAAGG: -0.312
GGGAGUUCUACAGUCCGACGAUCAGUCCUGUGCUACACAUCGUAUGUACCGAAUCGGGCCCCGGGCCCCGGGGCCCCGGGAAAGUAUUAUGUUACGCCGUUCGGAUCUGCACUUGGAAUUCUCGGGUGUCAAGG: -1.07
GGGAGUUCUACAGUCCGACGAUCGUCCUGUGCUACACAUCGUAUGUACCGAAUCAAACCCAAACCCCCCCAAAUUUUUAAAAAAGUAUUAUGUUACGCCGUUCGGAUCUGCACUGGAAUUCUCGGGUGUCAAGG: 0.909
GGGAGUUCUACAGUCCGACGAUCCACAGACAACACGCACCCACACAGACACAGAGGGAAGGGGUUGGGAUGGGGACAGGGUGCACAGCAGGGCUGGGUAGGACCCCAGCCCCUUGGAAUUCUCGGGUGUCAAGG: 0.548
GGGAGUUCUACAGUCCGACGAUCACCAUGCAGGUGGGCAGCUUUGGGAAGUGGGGCAAGGGGGGGAUAGGGAGGGGGGUAACACUUUGGGAACAGGUGGUCCCAGGUCGUUUCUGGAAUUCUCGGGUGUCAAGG: 0.0646

Study 2
Target: RNA binding protein fox-1 homolog 2, RRM domain, GST-SBP tag (RBFOX2, Homo sapiens, UniProt O43251-10, residues 100-194)
Method: RNA Bind-n-Seq
Form: RNA
Sample: in vitro
Concentration: 365 nM
Setting: natural RNA segment, single round, ends assumed
Relative to: no-protein control
Reading: higher = stronger binding
Measurement: RBNS enrichment (R)
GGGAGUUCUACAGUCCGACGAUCUCACCUUGCAGCUUGUGCUGAGACUGACCCAAGUGCAGCUAGCACUGGGACACAGAUCCUUGUCUUCAGCACCUUCCAAGGAGCCAACUUUUAUUCCCUUUCCUCUCUCCUGGAAUUCUCGGGUGCCAA: 0.555
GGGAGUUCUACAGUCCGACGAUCUCACAUGCUUGUGCCCUGGAAGCCCCAAGGCUCUUCCUCCAGCUGGCUCCCUUGUCUCCAGGGCUUUGGAGGAUCAGGGUAGGGAGGGCUCUGUCUCUAAGCCAGGUGUCUGGAAUUCUCGGGUGCCAA: 0.494
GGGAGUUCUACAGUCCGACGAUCUAGGAUAAGAAAUAAGAAUAAAGUACCUUGACUUUGUUCACAGCAUGUAGGGUGAUGAGCACUCACAAUUGUUGACUAAAAUGCUGCUUUUAAAACAUAGGAAAGUAGAAUGGAAUUCUCGGGUGCCAA: 10.7
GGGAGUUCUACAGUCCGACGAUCUGAAUGAAUGGUCUUGCAUUUUAAAAGCUUAUGGGAAACUCAAUUUGAAAUGAUUAGAAAAUGUCAAGUAUUAUAAGCUGGUAUUUAAGAUGCUUGUAAAUACUAUUUAUUGGAAUUCUCGGGUGCCAA: 0.711
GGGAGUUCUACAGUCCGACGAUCCCAGCUCCUCAGGUUUAACCUCUAAGUUGUGGAUGGAGACUAUUUAAAGUACACAUGAUGUAUUCAGUGCUGCAAGAGUGUUUGAAAUGAGCACACUGCCUCAUUUUCCUUGGAAUUCUCGGGUGCCAA: 0.467
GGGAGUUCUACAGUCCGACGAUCAUUACAGUUUAAUUAAUUAUUCUUAGUGCUUAAGGCUUCAUAAAGUAAUUUUUCCAACCUUUUUUUUAAAAAUGUGCAUCUUUUAUUAUCUUUUAUGGUUAAACUUGGAAUGGAAUUCUCGGGUGCCAA: 1.1
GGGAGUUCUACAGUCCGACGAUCUCUGCUUCUAAAAUUGCCCCACCUGCUCUAGAUGGAUCUUUGGGCCUUUCCUCAGUGUUCAUGCAAAAAUUAAAUGUCUUUUUUCAGCAUACUGACUCCAGGUGUAGUUAUGGAAUUCUCGGGUGCCAA: 0.678
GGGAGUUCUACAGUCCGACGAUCGCUUUCUUUUAUGGUAGACCUGUUAAUGGGGAAAAAAUACAUCAAAUCAAAUAGAAUCUUAUAUCUGUAUGUUAAAAUAGAGCACUUACCUGAAGUCAGUGGCCUGGAUCUGGAAUUCUCGGGUGCCAA: 0.489
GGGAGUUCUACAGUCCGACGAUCUUCUAUGGGGUAGCUAAGUUUGGGAAGCCUAUGAACUGUGGGUCCUGCCAAGGUUCUCAAAGCACUUAUCCUCAGGAUAGGGAAAUAGCAGGGACGCCUUGUCCCCAAGAUGGAAUUCUCGGGUGCCAA: 0.403
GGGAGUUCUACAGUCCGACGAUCGUGUGUGUCCUGCCUGUAUAUGUGGCUUCCUCUGAUGCUGACAAGGUGGGGAACAAUCCUUGCCAGAGUGGGCUGGGACCAGACUUUGUUCUCUUCCUCACCUGAAAUUAUGGAAUUCUCGGGUGCCAA: 0.678
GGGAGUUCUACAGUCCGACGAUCAAGGGCAGUGGGACUUGAGUAUUCUACAGAAAAAUUGAUACAGUCAUGCAAGAGGUAGGGGGGUAAAGAAUAAGUAGUCCUAUCAAUCAGGUAUAAGUUGUUUCAAGAGAUGGAAUUCUCGGGUGCCAA: 0.508
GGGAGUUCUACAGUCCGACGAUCGUCAGCCAGGGGCCAGUCAGCCCAGCAGUCUCCCCUGCUCCCUGACAUGAGUUCCUAAAGGGCACUGAAAAGGGCACCUCCUUCCUGUGUCUGCCUCCACUGCACCCCCAUGGAAUUCUCGGGUGCCAA: 0.67

Study 3
Target: Histone acetyltransferase KAT6A, winged helix 2, GST fusion (KAT6A, Homo sapiens, UniProt Q92794, residues 85-181)
Method: protein binding microarray
Form: double-stranded DNA, one strand shown
Sample: in vitro
Concentration: not given
Setting: 8-mer, flanks averaged, mean of 2 arrays, mostly near background
Relative to: not given
Reading: higher = stronger binding
Measurement: E-score
Construct (chain): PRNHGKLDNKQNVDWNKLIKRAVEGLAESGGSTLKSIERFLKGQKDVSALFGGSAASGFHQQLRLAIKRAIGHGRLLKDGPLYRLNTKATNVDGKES
AGCCGCGC: 0.139
CAGGGAAG: -0.147
GAGATCAC: -0.0589
ATGAAGTA: -0.011
TCGCCACA: -0.0609
ATCTACAA: -0.0903
ATCTGCTG: 0.103
ACTTTTCC: 0.0448
ATCTGATC: 0.0962
GGGCATGA: -0.131
AAGATAAA: 0.0177
CATATAAG: -0.062
GGCTGCAC: 0.14
ACGGCGGA: 0.0645
TAGATCAA: 0.0132
AGGACGAA: 0.16
GCCGTACA: -0.0593

Study 4
Target: PABPC1L2, full length, GST fusion (mouse, UniProt A0ABA7IW68)
Method: RNAcompete
Form: RNA
Sample: in vitro
Concentration: 20 nM
Setting: 7-mer, probes averaged, single round
Relative to: mean of 7-mers
Reading: higher = stronger binding
Measurement: 7-mer Z-score
Construct (chain): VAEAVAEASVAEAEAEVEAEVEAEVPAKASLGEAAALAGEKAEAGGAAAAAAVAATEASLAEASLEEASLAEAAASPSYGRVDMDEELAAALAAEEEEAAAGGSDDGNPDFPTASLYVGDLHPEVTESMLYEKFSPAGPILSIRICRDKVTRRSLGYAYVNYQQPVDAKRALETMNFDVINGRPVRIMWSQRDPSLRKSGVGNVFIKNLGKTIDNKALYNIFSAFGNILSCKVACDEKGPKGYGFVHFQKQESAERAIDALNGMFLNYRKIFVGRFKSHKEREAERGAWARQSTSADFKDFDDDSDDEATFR
GUGCAAG: -0.0373
AGCGGCA: 0.202
CUCCGUU: -0.418
UGUUACU: -0.412
AUGGCUG: 0.00436
CGUAGUU: -0.307
GUCGCCG: -0.358
CUACAGG: 0.0623
CCAACUC: -0.296
GUCCCUG: -0.293
GCCCAGG: -0.193
AAGCAGG: 0.318
CGGAUUG: -0.137
ACUUCUG: -0.248
UUGGACU: -0.182
UUCUGGG: -0.22
CUCAACU: -0.244
AGCCGUU: -0.416
GAACGGU: -0.0047
UGAGGAG: 0.0605
UCCUUUG: -0.296
GGCACCG: 0.202
CACGCGU: -0.0681
UUUUUGG: 0.017
ACUCCCA: -0.148

Repeated from above (study 4):
CACGCGU: -0.0681
AGCGGCA: 0.202
AGCCGUU: -0.416
GUGCAAG: -0.0373
UGUUACU: -0.412
